Measured values pooled from the literature.
Each numbered part is a random draw from the data of one study; scales do not carry over between parts. Changes are numbered by the printed parent chain. Numbers after ± are the reported error.
Chain of UniProt Q00535 (whole entry, looked up): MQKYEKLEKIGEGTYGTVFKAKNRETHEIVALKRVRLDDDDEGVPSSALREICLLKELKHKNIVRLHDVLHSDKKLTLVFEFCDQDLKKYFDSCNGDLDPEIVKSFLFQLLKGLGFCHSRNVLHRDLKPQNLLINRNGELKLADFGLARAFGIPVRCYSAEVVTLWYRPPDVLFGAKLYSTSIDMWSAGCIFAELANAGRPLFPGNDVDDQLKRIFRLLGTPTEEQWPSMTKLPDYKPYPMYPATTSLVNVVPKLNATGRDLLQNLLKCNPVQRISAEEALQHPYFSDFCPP
Chain of UniProt Q04759 (whole entry, looked up): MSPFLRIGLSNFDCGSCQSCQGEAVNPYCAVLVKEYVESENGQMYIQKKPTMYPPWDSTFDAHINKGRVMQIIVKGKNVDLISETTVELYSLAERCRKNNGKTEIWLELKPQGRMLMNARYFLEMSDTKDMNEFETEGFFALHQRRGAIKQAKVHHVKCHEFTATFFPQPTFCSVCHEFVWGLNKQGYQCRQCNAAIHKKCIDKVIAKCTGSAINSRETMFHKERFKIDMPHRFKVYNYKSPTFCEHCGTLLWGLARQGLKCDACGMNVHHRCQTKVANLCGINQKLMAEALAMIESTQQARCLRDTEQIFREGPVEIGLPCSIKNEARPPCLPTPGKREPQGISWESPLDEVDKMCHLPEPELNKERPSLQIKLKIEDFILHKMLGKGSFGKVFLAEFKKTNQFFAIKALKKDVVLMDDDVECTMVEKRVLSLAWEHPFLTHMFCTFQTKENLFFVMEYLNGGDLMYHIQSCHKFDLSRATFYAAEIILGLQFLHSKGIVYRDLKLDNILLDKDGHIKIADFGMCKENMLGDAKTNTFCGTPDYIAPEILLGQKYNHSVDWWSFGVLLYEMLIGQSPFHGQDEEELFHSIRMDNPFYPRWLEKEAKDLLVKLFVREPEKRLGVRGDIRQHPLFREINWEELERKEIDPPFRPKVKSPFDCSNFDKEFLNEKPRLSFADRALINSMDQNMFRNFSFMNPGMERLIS
Chain of UniProt Q9UPE1 (whole entry, looked up): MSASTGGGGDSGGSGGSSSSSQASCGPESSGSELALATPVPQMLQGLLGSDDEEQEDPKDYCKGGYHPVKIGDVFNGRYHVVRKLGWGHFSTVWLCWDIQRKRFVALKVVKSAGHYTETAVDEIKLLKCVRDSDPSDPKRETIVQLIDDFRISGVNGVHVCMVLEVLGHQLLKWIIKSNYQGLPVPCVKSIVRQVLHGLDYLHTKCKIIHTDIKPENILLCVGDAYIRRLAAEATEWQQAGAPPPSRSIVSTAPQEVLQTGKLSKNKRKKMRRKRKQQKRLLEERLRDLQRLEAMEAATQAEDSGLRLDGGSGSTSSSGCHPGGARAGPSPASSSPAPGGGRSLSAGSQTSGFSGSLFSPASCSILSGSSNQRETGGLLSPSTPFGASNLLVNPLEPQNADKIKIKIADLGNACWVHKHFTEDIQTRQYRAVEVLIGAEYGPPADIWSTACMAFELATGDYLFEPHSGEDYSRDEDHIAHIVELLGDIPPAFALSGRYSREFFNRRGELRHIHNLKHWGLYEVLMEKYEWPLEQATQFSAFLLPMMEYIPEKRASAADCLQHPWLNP
Chain of UniProt Q9P286 (whole entry, looked up): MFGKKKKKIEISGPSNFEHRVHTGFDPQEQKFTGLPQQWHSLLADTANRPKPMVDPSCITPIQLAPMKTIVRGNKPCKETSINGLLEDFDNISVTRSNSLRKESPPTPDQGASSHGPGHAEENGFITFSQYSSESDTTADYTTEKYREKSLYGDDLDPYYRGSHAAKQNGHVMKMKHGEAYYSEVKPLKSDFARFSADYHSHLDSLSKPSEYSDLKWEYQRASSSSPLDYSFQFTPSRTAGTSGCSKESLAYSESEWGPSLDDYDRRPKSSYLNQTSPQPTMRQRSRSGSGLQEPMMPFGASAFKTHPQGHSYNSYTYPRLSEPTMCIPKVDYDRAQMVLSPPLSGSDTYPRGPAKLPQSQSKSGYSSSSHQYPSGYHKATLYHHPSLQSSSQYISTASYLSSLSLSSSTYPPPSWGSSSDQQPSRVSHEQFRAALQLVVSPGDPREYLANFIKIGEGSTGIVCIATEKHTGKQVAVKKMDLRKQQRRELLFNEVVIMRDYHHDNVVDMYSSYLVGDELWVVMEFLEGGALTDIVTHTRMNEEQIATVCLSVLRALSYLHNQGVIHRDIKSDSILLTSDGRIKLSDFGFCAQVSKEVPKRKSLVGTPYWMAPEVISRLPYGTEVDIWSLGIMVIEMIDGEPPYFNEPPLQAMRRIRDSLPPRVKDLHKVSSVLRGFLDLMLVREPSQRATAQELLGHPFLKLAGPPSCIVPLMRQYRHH
Chain of UniProt P48730 (whole entry, looked up): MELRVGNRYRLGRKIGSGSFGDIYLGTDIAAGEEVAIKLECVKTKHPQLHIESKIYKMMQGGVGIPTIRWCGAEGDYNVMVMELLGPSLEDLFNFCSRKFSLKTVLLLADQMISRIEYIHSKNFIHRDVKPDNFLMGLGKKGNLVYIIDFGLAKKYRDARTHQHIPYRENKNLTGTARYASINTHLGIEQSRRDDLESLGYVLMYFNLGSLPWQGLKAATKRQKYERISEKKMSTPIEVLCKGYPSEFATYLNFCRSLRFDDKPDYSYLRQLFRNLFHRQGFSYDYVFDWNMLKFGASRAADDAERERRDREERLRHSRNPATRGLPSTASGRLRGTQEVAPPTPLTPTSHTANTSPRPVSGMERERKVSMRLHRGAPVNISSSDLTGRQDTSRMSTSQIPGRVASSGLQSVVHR
Chain of UniProt P49760 (whole entry, looked up): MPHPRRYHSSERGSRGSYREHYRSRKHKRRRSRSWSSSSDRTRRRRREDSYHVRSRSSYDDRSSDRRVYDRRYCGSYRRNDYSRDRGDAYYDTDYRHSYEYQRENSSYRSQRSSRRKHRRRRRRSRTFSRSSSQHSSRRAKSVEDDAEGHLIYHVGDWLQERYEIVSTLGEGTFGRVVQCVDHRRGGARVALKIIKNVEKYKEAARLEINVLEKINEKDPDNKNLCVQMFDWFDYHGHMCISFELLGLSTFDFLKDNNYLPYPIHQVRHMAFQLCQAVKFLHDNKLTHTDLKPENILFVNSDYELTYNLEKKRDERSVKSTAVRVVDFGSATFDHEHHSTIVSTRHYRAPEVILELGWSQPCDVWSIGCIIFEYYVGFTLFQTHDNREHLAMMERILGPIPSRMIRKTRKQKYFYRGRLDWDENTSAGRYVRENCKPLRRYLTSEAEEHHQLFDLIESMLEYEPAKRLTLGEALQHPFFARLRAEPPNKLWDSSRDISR
Chain of UniProt Q12866 (whole entry, looked up): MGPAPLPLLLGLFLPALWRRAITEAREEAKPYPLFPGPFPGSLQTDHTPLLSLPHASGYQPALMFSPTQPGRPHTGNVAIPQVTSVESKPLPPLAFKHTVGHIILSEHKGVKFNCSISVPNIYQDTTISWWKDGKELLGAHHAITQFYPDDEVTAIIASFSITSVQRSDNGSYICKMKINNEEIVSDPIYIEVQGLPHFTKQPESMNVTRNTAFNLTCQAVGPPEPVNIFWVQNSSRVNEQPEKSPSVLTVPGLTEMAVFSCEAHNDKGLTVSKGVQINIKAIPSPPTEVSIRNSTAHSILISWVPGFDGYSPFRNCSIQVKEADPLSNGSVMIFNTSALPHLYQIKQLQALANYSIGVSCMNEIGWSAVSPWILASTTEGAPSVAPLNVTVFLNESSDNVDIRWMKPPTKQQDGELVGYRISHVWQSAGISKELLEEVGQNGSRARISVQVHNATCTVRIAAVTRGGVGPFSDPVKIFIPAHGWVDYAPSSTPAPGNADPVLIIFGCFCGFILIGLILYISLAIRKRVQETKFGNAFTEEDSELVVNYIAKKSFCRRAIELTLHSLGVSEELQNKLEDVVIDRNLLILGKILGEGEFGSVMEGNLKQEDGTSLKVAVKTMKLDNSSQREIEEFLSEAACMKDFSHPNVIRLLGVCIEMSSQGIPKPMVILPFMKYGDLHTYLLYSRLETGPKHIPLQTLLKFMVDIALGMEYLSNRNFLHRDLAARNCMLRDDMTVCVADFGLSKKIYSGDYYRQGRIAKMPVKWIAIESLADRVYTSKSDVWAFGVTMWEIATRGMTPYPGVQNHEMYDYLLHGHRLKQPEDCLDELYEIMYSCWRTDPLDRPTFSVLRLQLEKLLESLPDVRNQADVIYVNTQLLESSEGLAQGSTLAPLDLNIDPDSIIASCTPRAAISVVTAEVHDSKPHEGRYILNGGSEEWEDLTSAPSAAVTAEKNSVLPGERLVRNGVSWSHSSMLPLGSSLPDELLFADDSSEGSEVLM
Chain of UniProt Q8NFD2 (whole entry, looked up): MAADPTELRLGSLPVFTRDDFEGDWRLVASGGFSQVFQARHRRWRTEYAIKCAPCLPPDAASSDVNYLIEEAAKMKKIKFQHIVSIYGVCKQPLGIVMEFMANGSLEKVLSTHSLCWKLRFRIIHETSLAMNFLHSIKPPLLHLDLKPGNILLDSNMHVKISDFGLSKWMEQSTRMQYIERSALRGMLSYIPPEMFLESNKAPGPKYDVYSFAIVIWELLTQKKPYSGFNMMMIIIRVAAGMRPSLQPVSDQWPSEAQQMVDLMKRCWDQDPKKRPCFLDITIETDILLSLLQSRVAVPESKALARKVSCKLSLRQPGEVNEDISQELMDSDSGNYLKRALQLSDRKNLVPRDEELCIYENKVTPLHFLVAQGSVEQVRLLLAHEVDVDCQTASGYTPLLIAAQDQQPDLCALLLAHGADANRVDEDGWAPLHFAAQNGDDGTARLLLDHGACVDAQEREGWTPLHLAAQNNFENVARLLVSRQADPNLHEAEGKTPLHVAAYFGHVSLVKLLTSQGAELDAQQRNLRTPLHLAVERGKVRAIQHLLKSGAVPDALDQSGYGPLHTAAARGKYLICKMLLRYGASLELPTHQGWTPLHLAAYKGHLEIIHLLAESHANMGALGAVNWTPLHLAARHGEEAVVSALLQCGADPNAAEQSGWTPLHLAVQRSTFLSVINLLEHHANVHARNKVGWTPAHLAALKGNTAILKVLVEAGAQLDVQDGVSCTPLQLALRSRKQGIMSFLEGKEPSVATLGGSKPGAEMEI

Set 1
Target: CRIPT, C-terminal peptide
Method: DHFR complementation, deep sequencing
Medium: yeast
Notes: single substitutions, model-inferred values
Relative to: wild type
Reading: higher = weaker binding
Starting sequence: ERBIN, PDZ domain 1 (human); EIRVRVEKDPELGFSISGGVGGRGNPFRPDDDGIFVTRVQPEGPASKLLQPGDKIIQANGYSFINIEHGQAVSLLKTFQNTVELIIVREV; partner TKNYKQTSV
Substitution | binding free energy change [kcal/mol]
I16S | 1.36
I55Y | 1.14
P26M | 0.796
E89P | 0.192
Q79I | 0.0865
I64P | 1.21
I16H | 1.79
I16C | 1.18

Set 2
SMILES: O=C1NC(=O)C(c2c[nH]c3ccccc23)=C1c1c[nH]c2ccccc12
Read-out: enzyme activity
Mode: inhibitor
Concentration: 0.5 µM
Relative to: control
target | remaining activity
Serine/threonine-protein kinase Sgk2 (SGK2, Homo sapiens, UniProt Q9HBY8) | 90.5%
Serine/threonine-protein kinase SIK2 (SIK2, Homo sapiens, UniProt Q9H0K1) | 102%
Casein kinase I isoform delta (CSNK1D, Homo sapiens, UniProt P48730) | 95.7%
Protein kinase C theta type (PRKCQ, Homo sapiens, UniProt Q04759) | 33.8%
Dual specificity protein kinase CLK2 (CLK2, Homo sapiens, UniProt P49760) | 46.7%

Set 3
Target: Prothrombin, mature alpha-thrombin (F2, Homo sapiens, UniProt P00734)
Method: aptamer microarray, sandwich
Form: DNA with 2'F-ANA
Medium: in vitro
Concentration: 200 nM
Notes: whole 15-mer aptamer, many near background
Together with: Cy3 exosite-II aptamer, 400 nM
Reading: higher = stronger binding
Sequence: GGTTGGTGTGGTTGG
Modification | mean fluorescence intensity
2'F-ANA at 3 4 5 9 11 14 15 | 49.6 a.u.
2'F-ANA at 2 4 6 7 9 12 13 15 | 305 a.u.
2'F-ANA at 7 9 10 13 14 15 | 102 a.u.
2'F-ANA at 1 2 4 5 6 9 12 14 | 48 a.u.
2'F-ANA at 1 4 5 7 9 11 14 | 50.1 a.u.
2'F-ANA at 3 4 5 7 8 10 11 12 15 | 64.3 a.u.
2'F-ANA at 1 4 5 9 10 11 12 | 47.4 a.u.
2'F-ANA at 1 2 4 7 10 | 53.9 a.u.

Set 4
Structure (SMILES): O=C(O)c1cc(-c2ccc(C3CCNCC3)cc2)c2ccc(-c3ccc(C(F)(F)F)cc3)cc2c1
Concentration: 1 µM
target | read-out | method | remaining binding
Epidermal growth factor receptor (EGFR, Homo sapiens, UniProt P00533, G719C) | cell-free assay | competition with immobilised ligand | 100%
Mitogen-activated protein kinase kinase kinase 5 (MAP3K5, Homo sapiens, UniProt Q99683) | cell-free assay | competition with immobilised ligand | 100%
Membrane-associated tyrosine- and threonine-specific cdc2-inhibitory kinase (PKMYT1, Homo sapiens, UniProt Q99640) | cell-free assay | competition with immobilised ligand | 100%
Beta-adrenergic receptor kinase 1 (GRK2, Homo sapiens, UniProt P25098) | cell-free assay | competition with immobilised ligand | 100%
Serine/threonine-protein kinase PRP4 homolog (PRPF4B, Homo sapiens, UniProt Q13523) | cell-free assay | competition with immobilised ligand | 100%
Tyrosine-protein kinase ABL1, non-phosphorylated (ABL1, Homo sapiens, UniProt P00519, T315I) | cell-free assay | competition with immobilised ligand | 74%
Mitogen-activated protein kinase 4 (MAPK4, Homo sapiens, UniProt P31152) | cell-free assay | competition with immobilised ligand | 100%
SRSF protein kinase 3 (SRPK3, Homo sapiens, UniProt Q9UPE1) | cell-free assay | competition with immobilised ligand | 82%
Serine/threonine-protein kinase 17B (STK17B, Homo sapiens, UniProt O94768) | cell-free assay | competition with immobilised ligand | 100%
Cyclin-dependent kinase 4 (CDK4, Homo sapiens, UniProt P11802) | cell-free assay | competition with immobilised ligand | 100%
Megakaryocyte-associated tyrosine-protein kinase (MATK, Homo sapiens, UniProt P42679) | cell-free assay | competition with immobilised ligand | 100%
Phosphatidylinositol 4,5-bisphosphate 3-kinase catalytic subunit beta isoform (PIK3CB, Homo sapiens, UniProt P42338) | cell-free assay | competition with immobilised ligand | 100%
Death-associated protein kinase 2 (DAPK2, Homo sapiens, UniProt Q9UIK4) | cell-free assay | competition with immobilised ligand | 100%
Ankyrin repeat and protein kinase domain-containing protein 1 (ANKK1, Homo sapiens, UniProt Q8NFD2) | cell-free assay | competition with immobilised ligand | 100%
Leucine-rich repeat serine/threonine-protein kinase 2 (LRRK2, Homo sapiens, UniProt Q5S007, G2019S) | cell-free assay | competition with immobilised ligand | 100%
Tyrosine-protein kinase ABL1, phosphorylated (ABL1, Homo sapiens, UniProt P00519, F317I) | binding |  | 100%
Serine/threonine-protein kinase PAK 5 (PAK5, Homo sapiens, UniProt Q9P286) | cell-free assay | competition with immobilised ligand | 100%
Cyclin-dependent kinase 5 (CDK5, Homo sapiens, UniProt Q00535) | cell-free assay | competition with immobilised ligand | 100%
Protein-tyrosine kinase 6 (PTK6, Homo sapiens, UniProt Q13882) | cell-free assay | competition with immobilised ligand | 100%
Phosphatidylinositol 4-kinase beta (PI4KB, Homo sapiens, UniProt Q9UBF8) | cell-free assay | competition with immobilised ligand | 100%
Macrophage colony-stimulating factor 1 receptor (CSF1R, Homo sapiens, UniProt P07333) | cell-free assay | competition with immobilised ligand | 100%
Tyrosine-protein kinase Mer (MERTK, Homo sapiens, UniProt Q12866) | cell-free assay | competition with immobilised ligand | 85%

Mixed results
Structure (SMILES) | species | medium | route | dose | time | quantity | value
OCCN1CCN(CCCN2c3ccccc3Sc3ccc(Cl)cc32)CC1 | mouse | serum |  | dose not given |  | serum ALT | 133 ± 42.6 U/L
COC(=O)c1cc(Cl)ccc1N(C)C(=O)c1ccn2ncc(-c3ccc(C(N)=O)cc3)c2c1 | female C57BL/6 mouse | plasma | oral | 10 mg/kg | 4 h | concentration | 20.7 nM
